Measurements pooled from the literature.
Lines come from different studies, so protocols differ.
Organism: Human immunodeficiency virus 1

For `C=C(C)[C@]12C[C@@H](COC(=O)c3ccccc3)[C@@]34OC5(O[C@@H]1[C@@H]3[C@@H]1O[C@]1(COC(=O)c1ccccc1)[C@@H](O)[C@@]1(O)[C@H]4[C@H]([C@H](C)[C@@H]1OC(=O)c1ccccc1)[C@H](C)CCCCCC[C@H]5OC(=O)c1ccccc1)O2`, the IC50 was no less than 1 nM (viral replication, inhibitor; MT4, NL43; 72 h).
The IC50 of `Cc1ccnc2c1NC(=O)c1cccnc1N2C1CC1` is reported as 60 nM (viral replication; human PBMC; 6 days).
The IC50 of `C[C@]1(CO)O[C@@H](n2cnc3c(N)nc(N)nc32)C[C@@H]1O` is reported as 247 nM (cytopathic effect, MTT; MT4).
The IC50 of `O=c1c(O)c(-c2ccc(O)cc2)oc2cc(O)cc(O)c12` is reported as 2450 nM (viral replication, inhibitor; TZM-bl, NL43; 48 h).
For `CC1=C[C@]23C(=O)[C@@H](C=C(CO)[C@@H](O)[C@]2(O)[C@H]1O)[C@H]1[C@@H](C[C@H]3C)C1(C)C`, the IC50 was greater than 1000 nM (viral replication; MT4, NL43).
With `C#C[C@]1(CO)O[C@@H](n2cnc3c(O)ncnc32)C[C@@H]1O` the IC50 was 276 nM (cytopathic effect, MTT; MT4).
`CC1=C[C@]23C(=O)[C@@H](C=C(CO)[C@@H](O)[C@]2(O)[C@H]1OC(=O)c1ccc2ccccc2c1)[C@H]1[C@@H](C[C@H]3C)C1(C)C` gave an IC50 of 1.3 nM (viral replication; MT4, NL43).
The IC50 of `CNc1nc(N)nc2c1ncn2[C@H]1C[C@H](O)[C@](CO)(CF)O1` is reported as 165 nM (cytopathic effect, MTT; MT4).
`N=C(N)NC[C@H]1Cc2ccccc2[C@@H]1NC(=O)C(=O)Nc1ccc(Cl)c(F)c1` has an IC50 of 3100 nM (viral replication, inhibitor; Cf2Th-CD4/CCR5).
`Nc1nc(F)nc2c1ncn2[C@H]1C[C@H](O)[C@](CO)(CF)O1` has an IC50 of 24.8 nM (cytopathic effect, MTT; MT4).
With `Cc1ccnc2c1NC(=O)c1cccnc1N2C1CC1` the IC50 was 36 nM (viral replication, inhibitor; HOS).
The IC50 of `OCCn1c(Cl)nc2cc(Br)c(Br)cc21` is reported as 3860 nM (viral replication; TZM-bl).
`NC(=S)n1nc(-c2ccc([N+](=O)[O-])cc2)c(/N=N/c2cccc(Cl)c2)c1O` gave an IC50 of 100 to 300 nM (viral replication, ELISA; CEM-T4, NL43; 9 days).
For `Cc1ccnc2c1NC(=O)c1cccnc1N2C1CC1`, the IC50 was 5 nM (viral replication; TZM-bl).
For `O=c1c(O)c(-c2ccc(O)c(O)c2)oc2cc(O)cc(O)c12`, the IC50 was 2490 nM (viral replication, inhibitor; TZM-bl, NL43; 48 h).
`N#C[C@]1(CO)O[C@@H](n2cnc3c(N)nc(N)nc32)C[C@@H]1O` has an IC50 of 0.2 nM (cytopathic effect, MTT; MT4).

A few entries again:
`CC1=C[C@]23C(=O)[C@@H](C=C(CO)[C@@H](O)[C@]2(O)[C@H]1OC(=O)c1ccc2ccccc2c1)[C@H]1[C@@H](C[C@H]3C)C1(C)C` gave an IC50 of 1.3 nM (viral replication; MT4, NL43).
The IC50 of `CNc1nc(N)nc2c1ncn2[C@H]1C[C@H](O)[C@](CO)(CF)O1` is reported as 165 nM (cytopathic effect, MTT; MT4).
`N=C(N)NC[C@H]1Cc2ccccc2[C@@H]1NC(=O)C(=O)Nc1ccc(Cl)c(F)c1` has an IC50 of 3100 nM (viral replication, inhibitor; Cf2Th-CD4/CCR5).
